Measured values gathered from unrelated publications.
Parts stem from different laboratories: compare values within a part only.

Block 1
Target: Sal-like protein 4, full length isoform A (SALL4, Homo sapiens, UniProt Q9UJQ4, residues 1-1053)
Chain of UniProt Q9UJQ4 (whole entry, looked up): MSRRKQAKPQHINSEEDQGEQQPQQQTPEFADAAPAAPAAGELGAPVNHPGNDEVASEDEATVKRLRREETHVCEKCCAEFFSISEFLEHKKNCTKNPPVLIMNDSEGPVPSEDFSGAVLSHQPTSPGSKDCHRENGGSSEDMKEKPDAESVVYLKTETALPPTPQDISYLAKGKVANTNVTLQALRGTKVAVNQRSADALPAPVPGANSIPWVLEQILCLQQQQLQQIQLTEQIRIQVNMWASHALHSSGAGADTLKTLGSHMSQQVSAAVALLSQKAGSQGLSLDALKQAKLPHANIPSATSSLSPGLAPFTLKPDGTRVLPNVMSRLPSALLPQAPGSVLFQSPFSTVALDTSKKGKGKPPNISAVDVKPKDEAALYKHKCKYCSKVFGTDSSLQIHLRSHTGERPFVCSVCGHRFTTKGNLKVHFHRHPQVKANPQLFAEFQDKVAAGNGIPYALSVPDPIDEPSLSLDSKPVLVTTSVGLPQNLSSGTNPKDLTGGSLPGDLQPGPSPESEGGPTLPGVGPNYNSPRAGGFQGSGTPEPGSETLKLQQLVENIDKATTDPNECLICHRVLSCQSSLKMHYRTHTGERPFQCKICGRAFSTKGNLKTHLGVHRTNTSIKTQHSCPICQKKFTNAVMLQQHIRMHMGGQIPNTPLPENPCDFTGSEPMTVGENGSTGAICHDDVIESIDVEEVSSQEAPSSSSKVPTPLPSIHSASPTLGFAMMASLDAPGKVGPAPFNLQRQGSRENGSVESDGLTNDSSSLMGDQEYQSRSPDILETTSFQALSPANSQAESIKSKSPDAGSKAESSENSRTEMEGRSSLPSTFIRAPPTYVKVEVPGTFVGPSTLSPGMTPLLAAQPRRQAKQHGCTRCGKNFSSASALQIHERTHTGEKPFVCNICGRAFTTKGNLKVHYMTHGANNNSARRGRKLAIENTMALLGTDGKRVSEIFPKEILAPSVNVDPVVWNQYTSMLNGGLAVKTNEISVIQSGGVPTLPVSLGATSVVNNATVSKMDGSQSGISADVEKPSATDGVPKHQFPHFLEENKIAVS
Method: universal PBM
Molecule type: double-stranded DNA, one strand shown
Sample: in vitro
Concentration: 600 nM
Notes: 8-mer, flanks averaged, mean of replicates
Reading: higher = stronger binding
| Oligonucleotide | E-score |
| --- | --- |
| ATAGCTGG | -0.125 |
| AACGAACA | 0.242 |
| GAATCCCC | -0.297 |
| AACTGCGT | -0.00426 |
| AGAGTTTG | 0.105 |
| CGGTACTA | -0.14 |
| ACTTGCGC | -0.1 |
| ACGCGCCT | -0.127 |
| AGAATACC | 0.103 |
| AAGAGTTG | 0.0312 |
| ACTCTTAT | 0.313 |
| CAATCTCC | -0.0274 |
| CATGACTA | 0.102 |

Block 2
Target: RNA binding protein fox-1 homolog 2, RRM domain, GST-SBP tag (RBFOX2, Homo sapiens, UniProt O43251-10, residues 100-194)
Method: RNA Bind-n-Seq
Molecule type: RNA
Sample: in vitro
Concentration: 365 nM
Notes: natural RNA segment, single round, ends assumed
Baseline: no-protein control
Reading: higher = stronger binding
All sequences stand within: GGGAGUUCUACAGUCCGACGAUC … UGGAAUUCUCGGGUGCCAA
Target sequence (chain): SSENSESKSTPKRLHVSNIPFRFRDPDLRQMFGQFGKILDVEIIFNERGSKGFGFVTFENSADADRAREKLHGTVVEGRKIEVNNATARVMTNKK
| Oligonucleotide | RBNS enrichment (R) |
| --- | --- |
| GAAGCUGAUGCCAGCAUGUCACUGGUUUUGAAGGGAUGAGCCCAGACUUGAUGUUUUGGGAUUGUCCUUAUUUUAACCUCAAGGUCUCGCAUGGUGGGGCCCCUGACCAA | 1.14 |
| GGCCAGAAAGGCAAUUUGGCUAAAAAAUGAAUAAGACUACUUCUAAUGUAACUAAGCAUCUCCACUAUGGUGUGUGCCUUUUAUAAAGGAAAAGAGAGAAAAAGGCAAAG | 0.406 |
| CAGCUCUGUUGACUUCUCUUGGAACACACCUGAACGCUUUCCUCAUUUCUAACCUGUGCCACCUCUUGUUUCGUUCAUGCUGAGCCUGUAGUUUCAGUCAUGGACUUUUG | 0.705 |
| GCUUUCAAAUCAUUGGAAGGGGAAAAGGAUGUCUUAGGAUUAUUUUCUUUCUUGUAGUAGUUGAGACAGAGCUCUUAUUUACUGUAAUGCUAAAUGAAACAGUGGCUUAA | 0.398 |
| GCUGGGAUUUUAAACUAGAUGACCUCAUUAACCGAUGCUUUACCAAACAGCAAACCAAGAGAUUGCUAAUUGCUGUUGAAAGCAAAAAUGCUAAUAUUAAAAGUCACAAU | 0.369 |
| AAAAUAACCUCCAAGGACCCUCUGACCCCAUCGACCUGGGCCCUGCCCACACAACAGUCUGAGCAAGAGACCUGCAGCCCCUGUUUCGUGGCAGACAGCAGGUGCCUGGC | 0.364 |
| AAUUAUGUAUUUCUUUGUUAUUUUAUCUUGAAGACGGUACAUAUUUUCGUAUUUGUGCAGAAAAACAAAUUAGGCCUAAAGUAUUGGUUUUUACCUGUACCAUCCACUCC | 0.317 |
| AGCAGAUGGGUGAGCUGCACCAAAGUACCUGAGCAGUUAGGCCCCAGGUCCCCACCUGACCACCUGUGAACUGGCCAUCAUCAGGCUCCCAGUUUCUCCUGUACAAAUCC | 0.294 |
| UUCAAUCAACAUCUCUUGAGUGUCUAUUAUGUACAGGACAUGUACUGAGACAAAAAGGAAACAUAAGAGCUUUUUCACUCUAAAAAUCUUGGCAAUAAUGUCAACACCAG | 0.411 |
| UCUCAGGGGGCUGUGUCUGAGUGACGGGUGUAUGUCUGUCUCAGAGAAUGUGUGUCUGUGGCCCCAAGUAGGUGAUAGGGAGAGACGGGGGCACCACAACCAACUCAGUG | 2.82 |
| CCGACUGAAGCCAGUGUCAGGGCACCACAUACUCCUGGGGCCAGUCUACAGGAAAGAGAUGUUCUGCAAACAAGGGUGGAUGCCUGCAGUAGAGGUCAGAGCUGGUUACC | 1.05 |
| UUAACUUUUCUGAUGCCUUAAAAGUGAACUUCUUUAAAGAACCUUUGUGCUAUUUUAUCACAGGCUUACACUACAAUUGUUAAUAAAUACUUCAUUUGGAGAUGUAUGGU | 0.312 |

Block 3
Target: RING finger protein unkempt homolog, zinc fingers 1-6, GST-SBP tag (UNK, Homo sapiens, UniProt Q9C0B0, residues 30-357)
Chain of UniProt Q9C0B0 (30-357, looked up): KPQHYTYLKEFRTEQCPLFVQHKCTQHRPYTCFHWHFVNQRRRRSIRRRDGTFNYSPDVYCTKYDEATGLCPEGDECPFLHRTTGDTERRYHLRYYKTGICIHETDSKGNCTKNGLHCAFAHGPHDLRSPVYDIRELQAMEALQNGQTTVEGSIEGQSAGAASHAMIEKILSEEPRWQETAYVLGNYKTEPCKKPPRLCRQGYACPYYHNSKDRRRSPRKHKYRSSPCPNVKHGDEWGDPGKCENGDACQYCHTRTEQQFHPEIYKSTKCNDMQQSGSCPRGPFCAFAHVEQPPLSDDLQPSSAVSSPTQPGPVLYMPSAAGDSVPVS
Method: RNA Bind-n-Seq
Molecule type: RNA
Sample: in vitro
Concentration: not given
Notes: RNA with constant flanks, human-mouse chimeric sites, ends assumed
Baseline: input RNA pool
Reading: higher = stronger binding
All sequences stand within: GGGAGUUCUACAGUCCGACGAUC … CAACAGAGGAUUGAGCAUCA
| Oligonucleotide | bound/input enrichment [ratio] |
| --- | --- |
| GUGCCCUUCUCGCUGCUGCGGAGCCCGAGCUGGGAACCAUUCCGGGACUGGUACCCUCCGCAUAGCCGCCUCUUCGAUCAAGCUUUCGGGGUGCCCCGGCUGCCGGAUGAGUGGUCGCAG | 0.0402 |
| UGUAACUUAUCUGUAAAAGGUUCCCCCCCCUACUGUCCAAAAAAUAUGCAUGUAUAGUAAUUAGGACUUCAUUCCUCCAUGUUUUCUUCCCUUAUCUUACUGUCAUUGUCCUUAAACCUU | 1.91 |
| UCAAGGGGGCACUGCAGAGCCAUGCCUUUCCUUGACAUCCAGAAAAGGCUGGGCAUCAGCCUGGACCGGCACUUUAUGUUCCUAAGCGCAGAACAGCCCUAUAAGAACGCCGCUCGGUGC | 0.0463 |
| CUGUGACCACAAGAUCCUACCUGAGUGGCAGCUGAAGUUGACUCCCUCUCCUUGCCUGAACCCCCCCCCACUGCCCCCCCAUCCCCCAGUGUCGGCUAUUCUCUGGUCUCUGCACGGUUC | 1.32 |
| AACGUGGAGUUGAGUUCCUUGGCCCGGCUUCCCAGCUUAAAUAAACUCCGGAAGUUGGAACUUAGUGAUAAUAUAAUUUCUGGAGGCUUGGAAGUCCUGGCAGAGAAAUGUCCAAAUCUU | 2.93 |
| AGAGAAAUGAGAAAGAAUCUUACACAAGAAGAGAUGCAAAGAAUGUCUACUAGAGUCCUUUUAGCCACUCUUUCCAUUCCUAUUACUCCUGAGCGAACUGAUAUUGCUCGACUUUUGGAU | 0.159 |
| ACUCAGAGAUCCACCUCCCAAAGUGCUCUGGAGCUCUGUGUGGCCACCACACCUAACUUGAUGGAUAUAUAUUUUUUUUAAUAUGAAUCUUCCUGUUCGUCCAGGGAGCAAGAACGGGUU | 0.517 |
| CGGAGCCCUCCUCUCCCACAGGCCCAAGAUAUAACCCACCAGUGCCUUCUGUCUGCUUGUCAGCUCUGUCAAUCACGGCCCUGCCUUCACGCCCACACCAAGUGCCCAAAGUGGGGAGGG | 0.326 |
| GUAAUGGACGUUAAUACUGCUCUACAAGAGGUGCUGAAGACCGCCCUCAUCCACGAUGGCCUAGCACGUGGCAUACGCGAAGCUGCCAAAGCCUUAGACAAGCGCCAAGCCCAUCUUUGU | 0.124 |
| UGGCGCCUGCGCUCCCCGUUUUUAAAUGUAUUUUUAUUUUUAUAAGAUACAUGUAUUUACAAUUGAGCUUUUGUUACAUAAUGCUGAAAUGCUACUGGAGAUUAUGAAAAAUGUUUCAAU | 0.141 |
| GAGUCGAGCAAACUUGAAACAAUUCGUUAUCUUGCAGAGCUUCGGUGCACUUGCUUGGCGAUAGCAUUGGGGUUUUAUAGGUUCUGGGGAAGUAGUAGACGAUGAUGCUGCCGCUGCUGC | 1.03 |

Mixed results
| Substance | target | assay | system | conditions | scale | measurement | value |
| --- | --- | --- | --- | --- | --- | --- | --- |
| PhoQ, residues 284 288 289 292 302 303 TYGVAM | PhoP, residues 12 14 15 18 19 NQFFI (Escherichia coli, UniProt P23836) | Sort-seq, item: YFP reporter | E. coli | PhoQ-PhoP variant library, with: 10 µM Mg2+ | baseline: high Mg2+ state, higher = stronger signaling | fold induction | 31.8 |

Repeated from above (block 3):
| Oligonucleotide | bound/input enrichment [ratio] |
| --- | --- |
| AGAGAAAUGAGAAAGAAUCUUACACAAGAAGAGAUGCAAAGAAUGUCUACUAGAGUCCUUUUAGCCACUCUUUCCAUUCCUAUUACUCCUGAGCGAACUGAUAUUGCUCGACUUUUGGAU | 0.159 |
| ACUCAGAGAUCCACCUCCCAAAGUGCUCUGGAGCUCUGUGUGGCCACCACACCUAACUUGAUGGAUAUAUAUUUUUUUUAAUAUGAAUCUUCCUGUUCGUCCAGGGAGCAAGAACGGGUU | 0.517 |
| CGGAGCCCUCCUCUCCCACAGGCCCAAGAUAUAACCCACCAGUGCCUUCUGUCUGCUUGUCAGCUCUGUCAAUCACGGCCCUGCCUUCACGCCCACACCAAGUGCCCAAAGUGGGGAGGG | 0.326 |
| GUAAUGGACGUUAAUACUGCUCUACAAGAGGUGCUGAAGACCGCCCUCAUCCACGAUGGCCUAGCACGUGGCAUACGCGAAGCUGCCAAAGCCUUAGACAAGCGCCAAGCCCAUCUUUGU | 0.124 |
| UGGCGCCUGCGCUCCCCGUUUUUAAAUGUAUUUUUAUUUUUAUAAGAUACAUGUAUUUACAAUUGAGCUUUUGUUACAUAAUGCUGAAAUGCUACUGGAGAUUAUGAAAAAUGUUUCAAU | 0.141 |
